Results of several laboratories.
Compare with care: the assays were run in different laboratories.
CA9: Carbonic anhydrase 9 (CA9, Homo sapiens, UniProt Q16790)
ACVRL1: Activin receptor type-1-like (ACVRL1, Homo sapiens, UniProt P37023)
Sequence of UniProt P37023 (whole entry, looked up): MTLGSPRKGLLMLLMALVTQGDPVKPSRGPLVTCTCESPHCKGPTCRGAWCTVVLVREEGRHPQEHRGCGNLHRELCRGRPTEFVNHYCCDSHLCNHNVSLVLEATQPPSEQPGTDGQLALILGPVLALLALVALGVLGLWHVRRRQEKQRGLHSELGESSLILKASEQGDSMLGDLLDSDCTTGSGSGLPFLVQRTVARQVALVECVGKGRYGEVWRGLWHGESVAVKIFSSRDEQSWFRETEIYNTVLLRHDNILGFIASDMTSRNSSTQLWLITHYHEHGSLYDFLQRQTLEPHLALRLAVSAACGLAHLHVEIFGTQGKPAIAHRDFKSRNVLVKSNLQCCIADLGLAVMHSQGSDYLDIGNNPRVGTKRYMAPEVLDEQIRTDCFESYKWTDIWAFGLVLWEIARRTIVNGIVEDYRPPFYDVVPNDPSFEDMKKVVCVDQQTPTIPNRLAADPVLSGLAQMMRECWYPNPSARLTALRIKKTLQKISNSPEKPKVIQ
Sequence of UniProt P11802 (whole entry, looked up): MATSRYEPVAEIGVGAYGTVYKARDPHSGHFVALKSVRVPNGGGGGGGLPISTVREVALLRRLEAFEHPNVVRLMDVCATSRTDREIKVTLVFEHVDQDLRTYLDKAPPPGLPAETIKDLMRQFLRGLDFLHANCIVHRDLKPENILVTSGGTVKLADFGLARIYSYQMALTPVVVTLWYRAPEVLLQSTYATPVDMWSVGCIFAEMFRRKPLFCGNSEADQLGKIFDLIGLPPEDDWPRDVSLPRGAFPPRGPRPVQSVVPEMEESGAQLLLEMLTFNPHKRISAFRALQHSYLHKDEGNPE
Sequence of UniProt Q13470 (whole entry, looked up): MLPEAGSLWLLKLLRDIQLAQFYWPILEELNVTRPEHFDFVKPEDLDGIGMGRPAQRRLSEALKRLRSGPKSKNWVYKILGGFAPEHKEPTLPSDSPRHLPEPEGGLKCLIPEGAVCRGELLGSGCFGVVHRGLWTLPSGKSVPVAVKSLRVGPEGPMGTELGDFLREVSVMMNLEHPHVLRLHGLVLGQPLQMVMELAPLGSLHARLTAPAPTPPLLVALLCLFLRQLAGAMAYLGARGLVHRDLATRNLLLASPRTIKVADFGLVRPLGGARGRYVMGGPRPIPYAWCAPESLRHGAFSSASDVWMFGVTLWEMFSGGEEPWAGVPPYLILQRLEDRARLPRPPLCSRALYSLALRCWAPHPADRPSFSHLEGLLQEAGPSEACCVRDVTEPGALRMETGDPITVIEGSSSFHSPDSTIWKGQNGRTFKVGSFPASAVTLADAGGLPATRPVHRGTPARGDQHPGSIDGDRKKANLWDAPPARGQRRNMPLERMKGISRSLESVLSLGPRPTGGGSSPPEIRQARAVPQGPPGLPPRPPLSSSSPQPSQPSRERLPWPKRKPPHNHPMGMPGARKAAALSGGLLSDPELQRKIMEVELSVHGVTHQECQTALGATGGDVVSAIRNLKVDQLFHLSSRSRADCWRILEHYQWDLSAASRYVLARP

| Compound | tested on | test | conditions | endpoint | result |
| --- | --- | --- | --- | --- | --- |
| Cc1cc(S(N)(=O)=O)ccc1CNC(=O)Nc1ccc(Cl)c(C(=O)NCc2cccs2)c1 | CA9 | enzyme activity, inhibitor | – | IC50 | 86 nM |
| [2H]c1c([2H])c([C@]2([2H])CCCN2C(=O)C(C)(C)Oc2ccc3cn[nH]c3c2)c([2H])c([2H])c1C([2H])([2H])[2H] | Non-receptor tyrosine-protein kinase TNK1 (TNK1, Homo sapiens, UniProt Q13470) | binding, competition with immobilised ligand | 1 µM | remaining binding | 100% |
| C=CC(=O)N1CCC(COCC(=O)N2CCN(c3nc(-c4cnc(N)nc4C(F)F)nc(N4CCOC[C@@H]4C)n3)CC2)CC1 | ACVRL1 | binding, competition with immobilised ligand | 1 µM | remaining binding | 100% |
| COc1cc(-c2cncc3c2CN(C)Cc2cc(N4CCNCC4)ccc2-3)cc(OC)c1OC | Cyclin-dependent kinase 4, with cyclin D3 (CDK4, Homo sapiens, UniProt P11802) | enzyme activity, inhibitor | 1 µM | remaining activity | 125% |
| CNc1ncc2c(/C=C/C(=O)N3CCC(OC)CC3)nn(Cc3cccc(C(F)(F)F)c3)c2n1 | Cyclin-dependent kinase 4, with cyclin D1 (CDK4, Homo sapiens, UniProt P11802) | enzyme activity, inhibitor, radiometric | 1 µM | remaining activity | 96% |
| Cc1cc(C)n(-c2ccc(C(=O)N3CCC(C(=O)Nc4ccc(S(N)(=O)=O)cc4)CC3)cc2)n1 | CA9 | enzyme activity, inhibitor | – | IC50 | 37.2 nM |
| Cc1noc(NS(=O)(=O)c2ccc(N=NN(C)O)cc2)c1C | – | DPPH scavenging, absorbance | 20 µg/mL | inhibition | 5.3% |
| C1=C/COCc2cc(ccc2OCCN2CCCC2)Nc2nccc(n2)-c2cccc(c2)COC/1 | ACVRL1 | binding | 0.1 µM | remaining binding | 39% |

Repeated from above:
| Compound | tested on | test | conditions | endpoint | result |
| --- | --- | --- | --- | --- | --- |
| Cc1cc(C)n(-c2ccc(C(=O)N3CCC(C(=O)Nc4ccc(S(N)(=O)=O)cc4)CC3)cc2)n1 | CA9 | enzyme activity, inhibitor | – | IC50 | 37.2 nM |
